Measured values pooled from the literature.
A part holds a random share of what one study measured. “And” joins repeats or separate records; there may be more than shown.
Sequence of UniProt Q13976 (whole entry, looked up): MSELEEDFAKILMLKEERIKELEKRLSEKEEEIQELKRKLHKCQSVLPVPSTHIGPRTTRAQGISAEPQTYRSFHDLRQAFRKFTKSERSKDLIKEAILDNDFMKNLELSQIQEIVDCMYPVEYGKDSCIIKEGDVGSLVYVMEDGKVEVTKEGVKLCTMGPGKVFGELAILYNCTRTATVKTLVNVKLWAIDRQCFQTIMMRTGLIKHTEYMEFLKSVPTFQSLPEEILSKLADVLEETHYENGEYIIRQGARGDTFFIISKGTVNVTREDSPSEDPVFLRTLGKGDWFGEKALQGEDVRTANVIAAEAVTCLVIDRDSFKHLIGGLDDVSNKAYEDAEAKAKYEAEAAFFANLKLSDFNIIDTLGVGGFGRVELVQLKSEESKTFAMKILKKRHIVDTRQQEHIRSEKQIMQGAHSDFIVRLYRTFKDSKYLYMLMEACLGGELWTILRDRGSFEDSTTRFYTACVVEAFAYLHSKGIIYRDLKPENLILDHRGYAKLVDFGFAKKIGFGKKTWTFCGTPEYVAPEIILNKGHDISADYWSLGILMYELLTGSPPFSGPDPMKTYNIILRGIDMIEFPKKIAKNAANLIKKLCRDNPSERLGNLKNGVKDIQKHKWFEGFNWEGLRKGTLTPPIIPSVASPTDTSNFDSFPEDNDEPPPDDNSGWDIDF
Sequence of UniProt Q09013 (whole entry, looked up): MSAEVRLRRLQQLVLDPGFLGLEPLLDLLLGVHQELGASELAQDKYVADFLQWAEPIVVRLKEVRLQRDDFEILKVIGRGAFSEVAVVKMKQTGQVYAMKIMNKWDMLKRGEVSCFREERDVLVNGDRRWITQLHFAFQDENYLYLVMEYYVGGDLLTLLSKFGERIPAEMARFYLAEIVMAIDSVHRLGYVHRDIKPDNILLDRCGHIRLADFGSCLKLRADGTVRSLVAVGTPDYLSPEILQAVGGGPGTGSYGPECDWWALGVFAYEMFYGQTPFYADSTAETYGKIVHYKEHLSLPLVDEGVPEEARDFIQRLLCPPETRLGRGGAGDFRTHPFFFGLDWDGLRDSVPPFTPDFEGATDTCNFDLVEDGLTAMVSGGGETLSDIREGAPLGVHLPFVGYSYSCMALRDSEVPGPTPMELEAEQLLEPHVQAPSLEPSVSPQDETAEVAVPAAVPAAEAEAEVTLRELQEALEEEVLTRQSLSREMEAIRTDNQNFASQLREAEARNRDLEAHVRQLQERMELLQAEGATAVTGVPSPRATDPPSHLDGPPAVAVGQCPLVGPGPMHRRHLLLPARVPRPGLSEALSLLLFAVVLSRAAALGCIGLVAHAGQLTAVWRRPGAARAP
Sequence of UniProt P07949 (whole entry, looked up): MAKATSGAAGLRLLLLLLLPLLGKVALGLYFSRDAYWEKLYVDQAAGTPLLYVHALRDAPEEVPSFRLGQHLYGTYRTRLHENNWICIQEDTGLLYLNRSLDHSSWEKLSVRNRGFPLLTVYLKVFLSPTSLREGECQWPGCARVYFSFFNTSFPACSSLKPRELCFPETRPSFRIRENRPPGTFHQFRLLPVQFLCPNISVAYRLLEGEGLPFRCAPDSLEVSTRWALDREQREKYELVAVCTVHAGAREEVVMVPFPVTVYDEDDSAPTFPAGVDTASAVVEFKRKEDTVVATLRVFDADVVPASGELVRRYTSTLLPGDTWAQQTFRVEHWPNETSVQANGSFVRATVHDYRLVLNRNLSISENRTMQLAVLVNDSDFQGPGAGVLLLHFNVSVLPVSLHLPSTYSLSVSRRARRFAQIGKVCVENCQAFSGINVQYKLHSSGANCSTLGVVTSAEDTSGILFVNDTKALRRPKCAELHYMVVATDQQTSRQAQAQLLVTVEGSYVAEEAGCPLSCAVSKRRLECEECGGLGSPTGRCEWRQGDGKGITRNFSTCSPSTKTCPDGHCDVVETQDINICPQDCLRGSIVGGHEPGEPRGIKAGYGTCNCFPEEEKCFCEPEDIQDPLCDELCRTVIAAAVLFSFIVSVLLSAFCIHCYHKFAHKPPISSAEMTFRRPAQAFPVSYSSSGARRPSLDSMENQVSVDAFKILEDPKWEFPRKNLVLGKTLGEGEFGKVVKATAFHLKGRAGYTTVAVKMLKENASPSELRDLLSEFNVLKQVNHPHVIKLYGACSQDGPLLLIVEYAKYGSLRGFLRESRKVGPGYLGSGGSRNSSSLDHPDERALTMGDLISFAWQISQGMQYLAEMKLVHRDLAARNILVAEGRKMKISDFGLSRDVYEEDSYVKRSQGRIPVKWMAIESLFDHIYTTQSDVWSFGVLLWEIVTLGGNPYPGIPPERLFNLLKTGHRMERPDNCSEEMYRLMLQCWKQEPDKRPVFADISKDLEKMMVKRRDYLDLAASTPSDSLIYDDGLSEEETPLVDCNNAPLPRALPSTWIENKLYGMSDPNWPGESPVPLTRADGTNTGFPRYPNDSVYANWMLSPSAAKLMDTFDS
Sequence of UniProt P48729 (whole entry, looked up): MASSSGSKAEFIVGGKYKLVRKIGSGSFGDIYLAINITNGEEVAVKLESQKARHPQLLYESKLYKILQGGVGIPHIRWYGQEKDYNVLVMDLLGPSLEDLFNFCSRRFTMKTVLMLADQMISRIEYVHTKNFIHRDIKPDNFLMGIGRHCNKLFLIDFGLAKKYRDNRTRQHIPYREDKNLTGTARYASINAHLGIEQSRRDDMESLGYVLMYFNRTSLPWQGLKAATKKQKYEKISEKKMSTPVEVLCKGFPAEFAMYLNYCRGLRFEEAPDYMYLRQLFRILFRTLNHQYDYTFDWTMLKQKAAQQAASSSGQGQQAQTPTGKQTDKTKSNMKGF
Sequence of UniProt Q15139 (whole entry, looked up): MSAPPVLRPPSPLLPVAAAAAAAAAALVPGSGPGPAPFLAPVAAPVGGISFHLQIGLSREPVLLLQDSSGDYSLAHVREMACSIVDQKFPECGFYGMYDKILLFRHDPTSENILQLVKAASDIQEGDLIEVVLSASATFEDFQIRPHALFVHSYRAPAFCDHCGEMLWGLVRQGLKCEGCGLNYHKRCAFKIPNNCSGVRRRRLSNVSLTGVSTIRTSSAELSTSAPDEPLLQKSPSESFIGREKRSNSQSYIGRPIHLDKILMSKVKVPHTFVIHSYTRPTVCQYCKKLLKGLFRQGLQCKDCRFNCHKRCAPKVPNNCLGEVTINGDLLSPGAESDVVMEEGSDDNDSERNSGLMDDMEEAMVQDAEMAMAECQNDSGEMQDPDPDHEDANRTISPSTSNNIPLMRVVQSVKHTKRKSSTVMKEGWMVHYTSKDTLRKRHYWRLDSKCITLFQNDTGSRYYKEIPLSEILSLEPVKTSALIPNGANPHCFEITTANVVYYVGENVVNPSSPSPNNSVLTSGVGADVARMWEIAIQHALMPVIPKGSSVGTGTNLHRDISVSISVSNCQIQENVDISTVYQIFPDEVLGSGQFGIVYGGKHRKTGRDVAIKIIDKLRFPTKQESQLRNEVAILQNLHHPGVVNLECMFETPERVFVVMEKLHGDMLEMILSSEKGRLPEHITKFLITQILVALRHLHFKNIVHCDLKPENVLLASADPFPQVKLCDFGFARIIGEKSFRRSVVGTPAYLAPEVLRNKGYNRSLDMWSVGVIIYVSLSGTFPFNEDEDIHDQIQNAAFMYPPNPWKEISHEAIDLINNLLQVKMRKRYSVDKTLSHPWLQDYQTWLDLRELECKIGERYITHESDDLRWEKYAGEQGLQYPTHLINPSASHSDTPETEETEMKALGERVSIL
Sequence of UniProt Q8NG66 (whole entry, looked up): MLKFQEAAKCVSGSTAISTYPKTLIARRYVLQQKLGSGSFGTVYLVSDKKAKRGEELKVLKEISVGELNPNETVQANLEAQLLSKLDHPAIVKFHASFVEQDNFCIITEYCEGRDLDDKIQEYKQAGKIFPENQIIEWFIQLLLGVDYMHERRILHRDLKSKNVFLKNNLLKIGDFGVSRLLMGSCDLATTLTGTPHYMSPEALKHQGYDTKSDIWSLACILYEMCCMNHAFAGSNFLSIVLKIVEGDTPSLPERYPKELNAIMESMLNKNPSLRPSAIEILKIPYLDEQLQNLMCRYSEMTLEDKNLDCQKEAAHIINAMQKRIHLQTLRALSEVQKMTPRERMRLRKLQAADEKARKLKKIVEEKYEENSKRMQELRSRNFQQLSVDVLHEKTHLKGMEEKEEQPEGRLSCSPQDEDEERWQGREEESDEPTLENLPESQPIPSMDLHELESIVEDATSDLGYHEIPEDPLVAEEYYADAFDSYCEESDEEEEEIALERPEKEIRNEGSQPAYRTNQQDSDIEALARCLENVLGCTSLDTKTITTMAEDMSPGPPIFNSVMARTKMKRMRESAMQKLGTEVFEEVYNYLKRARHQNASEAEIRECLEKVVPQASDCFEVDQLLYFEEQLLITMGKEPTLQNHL
Sequence of UniProt Q13470 (whole entry, looked up): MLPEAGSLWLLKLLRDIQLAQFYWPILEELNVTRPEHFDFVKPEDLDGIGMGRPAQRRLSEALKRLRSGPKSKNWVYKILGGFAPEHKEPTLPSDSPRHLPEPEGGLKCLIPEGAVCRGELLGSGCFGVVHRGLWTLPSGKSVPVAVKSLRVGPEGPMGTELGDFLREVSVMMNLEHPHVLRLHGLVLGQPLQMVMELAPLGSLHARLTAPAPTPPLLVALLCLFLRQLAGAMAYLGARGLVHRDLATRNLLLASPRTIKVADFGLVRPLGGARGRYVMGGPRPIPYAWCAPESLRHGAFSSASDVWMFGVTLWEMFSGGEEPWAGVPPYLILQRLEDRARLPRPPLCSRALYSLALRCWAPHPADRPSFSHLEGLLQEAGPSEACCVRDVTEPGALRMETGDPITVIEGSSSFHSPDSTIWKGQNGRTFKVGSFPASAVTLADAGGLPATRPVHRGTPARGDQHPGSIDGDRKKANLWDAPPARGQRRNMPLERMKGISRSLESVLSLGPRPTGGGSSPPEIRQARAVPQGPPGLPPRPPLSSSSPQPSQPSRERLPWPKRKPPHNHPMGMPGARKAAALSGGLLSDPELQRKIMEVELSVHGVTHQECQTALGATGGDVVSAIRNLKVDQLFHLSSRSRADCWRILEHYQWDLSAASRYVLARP

Series 1 — cell line: mouse MPNST tumor cells; method: high-content nuclear imaging; measured: cell number; tested at: 10 µM; time: 12 h; setting: mean of 2 replicates; relative to: plate mean; reading: higher = more cells
Cc1cccc(C)c1OCC(C)N (stereo not drawn) gave a nuclei count of 3.22 z-score and 3.29 z-score.
The nuclei count of CN1CCC(=C2c3ccccc3CCc3sccc32)CC1 is reported as 1.29 z-score.
The nuclei count of O=C(O)c1cc(=O)c2ccccc2[nH]1 is reported as -1.19 z-score and 0.541 z-score.
For O=C(NNC(=O)c1ccc(CNS(=O)(=O)c2ccc(F)c(Cl)c2)cc1)c1ccccc1, the nuclei count was 3.55 z-score.
The nuclei count of O=S(=O)(NCCNC/C=C/c1ccc(Br)cc1)c1cccc2cnccc12 is reported as -0.205 z-score.
CC(=O)N(CC(O)CN(C(C)=O)c1c(I)c(C(=O)NCC(O)CO)c(I)c(C(=O)NCC(O)CO)c1I)c1c(I)c(C(=O)NCC(O)CO)c(I)c(C(=O)NCC(O)CO)c1I (stereo not drawn) gave a nuclei count of -0.762 z-score.
For CCc1oc2ccccc2c1C(=O)c1cc(Br)c(O)c(Br)c1, the nuclei count was 1.19 z-score.
COC1=C(OC)C(=O)C(CCCCCCCCCCO)=C(C)C1=O has a nuclei count of 0.996 z-score.
For CN(C)CCC=C1c2ccccc2COc2ccccc21, the nuclei count was 5.08 z-score.
N[C@@H](Cc1cc(I)c(Oc2ccc(O)c(I)c2)c(I)c1)C(=O)O has a nuclei count of 0.205 z-score and 2.16 z-score.

Series 2 — effect on: enzyme activity; action: inhibitor; tested at: 0.5 µM; relative to: control
SMILES: Cn1cc(/C=C2\C(=O)Nc3ccc(S(N)(=O)=O)cc32)c2ccccc21
It gave 89.2% for remaining activity (CAMK1G (Homo sapiens, UniProt Q96NX5)).
HIPK3 (Homo sapiens, UniProt Q9H422) — remaining activity: 105%.
For Aurora kinase A (AURKA, Homo sapiens, UniProt O14965): remaining activity read 20%.
For RET (Homo sapiens, UniProt P07949): remaining activity read 1.93%.
It gave 73.7% for remaining activity (CDK7 (Homo sapiens, UniProt P50613)).
For CAMK1D (Homo sapiens, UniProt Q8IU85): remaining activity read 69.6%.
It gave 1.18% for remaining activity (NTRK3 (Homo sapiens, UniProt Q16288)).
It gave 28.6% for remaining activity (SLK (Homo sapiens, UniProt Q9H2G2)).
The remaining activity was 96.8% (MAP3K8 (Homo sapiens, UniProt P41279)).
For DMPK (Homo sapiens, UniProt Q09013): remaining activity read 106%.
GRK5 (Homo sapiens, UniProt P34947) — remaining activity: 86.3%.
The remaining activity was 73.7% (DYRK4 (Homo sapiens, UniProt Q9NR20)).
It gave 66% for remaining activity (CSNK2A2 (Homo sapiens, UniProt P19784)).
The remaining activity was 92.1% (MAP3K2 (Homo sapiens, UniProt Q9Y2U5)).
It gave 80% for remaining activity (PRKD1 (Homo sapiens, UniProt Q15139)).
It gave 41% for remaining activity (ROCK2 (Homo sapiens, UniProt O75116)).
For BRSK1 (Homo sapiens, UniProt Q8TDC3): remaining activity read 47.8%.
EGFR (Homo sapiens, UniProt P00533) — remaining activity: 77.5%.
It gave 93.1% for remaining activity (MAPK10 (Homo sapiens, UniProt P53779)).
The remaining activity was 43.1% (PTK2B (Homo sapiens, UniProt Q14289)).
For ROS1 (Homo sapiens, UniProt P08922): remaining activity read 82.2%.
For Cyclin-dependent kinase 2, with cyclin A (CDK2, Homo sapiens, UniProt P24941): remaining activity read 66.2%.
For PKN2 (Homo sapiens, UniProt Q16513): remaining activity read 81.8%.

Series 3 — effect on: binding; action: competitor; method: NanoBRET; cells: HEK293
SMILES: CC(C)C(=O)N1CCN(c2nc(OC[C@@H]3CCCN3C)nc3c2CCN(c2cccc4cccc(Cl)c24)C3)C[C@@H]1CC#N
KRAS Q61H: GTPase KRas (KRAS, Homo sapiens, UniProt P01116, Q61H)
KRAS G12D: GTPase KRas (KRAS, Homo sapiens, UniProt P01116, G12D)
KRAS Q61R: GTPase KRas (KRAS, Homo sapiens, UniProt P01116, Q61R)
KRAS G13D: GTPase KRas (KRAS, Homo sapiens, UniProt P01116, G13D)
For KRAS Q61H; 11.1 µM: normalized BRET read 87.1% and 75.9% and 79.3%.
KRAS G12D; 33.3 µM — normalized BRET: 136% and 111% and 133%.
KRAS Q61R; 412 nM — normalized BRET: 104% and 91% and 103%.
For KRAS Q61H; 3.7 µM: normalized BRET read 91.8% and 90.9% and 89.5%.
The normalized BRET was 90.3% and 111% and 100% (KRAS Q61R; 5.08 nM).
The normalized BRET was 95.8% and 89.9% and 102% (KRAS G12D; 412 nM).
The normalized BRET was 105% and 104% and 89% (KRAS Q61R; 45.7 nM).
The normalized BRET was 97.6% and 88.8% and 88.9% (KRAS G13D; 3.7 µM).
For GTPase KRas (KRAS, Homo sapiens, UniProt P01116, Q61L); 15.2 nM: normalized BRET read 96.8% and 102% and 92.8%.
It gave 91% and 105% and 92.7% for normalized BRET (KRAS Q61H; 1.24 µM).
It gave 76.8% and 79.2% and 89.2% for normalized BRET (KRAS G13D; 11.1 µM).

Series 4 — effect on: cell-free assay; method: competition with immobilised ligand; tested at: 1 µM
Structure (SMILES): N#Cc1ccc(Nc2ccc3[nH]c(=O)[nH]c3c2)c(Cl)c1
CSNK1A1 (Homo sapiens, UniProt P48729) — remaining binding: 100%.
For Tyrosine-protein kinase ABL1, phosphorylated (ABL1, Homo sapiens, UniProt P00519, M351T): remaining binding read 100%.
It gave 80% for remaining binding (PRKG1 (Homo sapiens, UniProt Q13976)).
TAOK1 (Homo sapiens, UniProt Q7L7X3) — remaining binding: 97%.
The remaining binding was 100% (EGFR (Homo sapiens, UniProt P00533, L861Q)).
It gave 98% for remaining binding (CLK4 (Homo sapiens, UniProt Q9HAZ1)).
It gave 97% for remaining binding (ERBB3 (Homo sapiens, UniProt P21860)).
The remaining binding was 100% (SNRK (Homo sapiens, UniProt Q9NRH2)).
It gave 100% for remaining binding (NEK11 (Homo sapiens, UniProt Q8NG66)).
The remaining binding was 56% (TNK1 (Homo sapiens, UniProt Q13470)).
The remaining binding was 100% (STK3 (Homo sapiens, UniProt Q13188)).
KIT (Homo sapiens, UniProt P10721, T670I/V559D) — remaining binding: 100%.
It gave 100% for remaining binding (FGFR2 (Homo sapiens, UniProt P21802)).
